Experimental data of several laboratories.
Numbers after ± are the reported error.

The tissue uptake of `CCCC[C@H](NC(=O)CCCCCCCNC(=O)CN1CCN(CC(=O)O)CCN(CC(=O)O)CC1)C(=O)N[C@H]1CC(=O)NCCCC[C@@H](C(N)=O)NC(=O)[C@H](Cc2c[nH]c3ccccc23)NC(=O)[C@H](CCCNC(=N)N)NC(=O)[C@@H](Cc2ccccc2)NC(=O)[C@H](Cc2c[nH]cn2)NC1=O` [copper-64 labelled] is reported as 0.39 ± 0.05 %ID/g (C57 mice, skin; intravenous, 0.37 MBq, 2 h).
With `CCn1cc(C(=O)NCCCCCC(=O)N[C@@H](CCCNC(=N)N)C(=O)N[C@@H](CC(C)C)C(=O)N[C@@H](CC(C)C)C(=O)N[C@@H](CCCNC(=N)N)C(=O)N[C@@H](CCCNC(=N)N)C(=O)N[C@@H](CC(C)C)C(=O)N[C@@H](CC(C)C)C(=O)N[C@@H](CCCNC(=N)N)C(N)=O)c(=O)c2cc3c(cc21)OCO3` the retention time was 7.2 min (RP-HPLC, C18 column; higher is more hydrophobic).
For `CN1C(=O)[C@@H](Cc2ccc(O)cc2)NC(=O)CNC(=O)[C@H](Cc2ccc3ccccc3c2)NC(=O)[C@H](CCCNC(=N)N)NC(=O)[C@H]1CCCNC(=O)c1ccc(CNC(=O)CN2CCN(CC(=O)O)CCN(CC(=O)O)CCN(CC(=O)O)CC2)cc1` [gallium-68 labelled], the effective dose was 1.65 ± 0.06 mSv (adult reference man, from C57BL/6 mice data; 150 MBq).
With `CCCC[C@H](NC(=O)CNC(=O)CNC(=O)CN1CCN(CC(=O)O)CCN(CC(=O)O)CCN(CC(=O)O)CC1)C(=O)N[C@H]1CC(=O)NCCCC[C@@H](C(N)=O)NC(=O)[C@H](Cc2c[nH]c3ccccc23)NC(=O)[C@H](CCCNC(=N)N)NC(=O)[C@@H](Cc2ccccc2)NC(=O)[C@H](Cc2c[nH]cn2)NC1=O` [lutetium-177 labelled] the tissue uptake was 0.27 ± 0.14 %ID/g (C57 mouse, female, spleen; intravenous, 0.037 MBq, 2 h).
With `CC(C)C[C@H](NC(=O)[C@@H](CCCCNC(=O)CCCCCNC(=O)CN1CCN(CC(=O)O)CCN(CC(=O)O)CCN(CC(=O)O)CC1)NC(=O)[C@H](Cc1ccc(O)cc1)NC(=O)[C@H](CO)NC(=O)[C@H](Cc1c[nH]c2ccccc12)NC(=O)[C@H](Cc1cnc[nH]1)NC(=O)[C@@H]1CCC(=O)N1)C(=O)N[C@@H](CCCNC(=N)N)C(=O)N1CCC[C@H]1C(=O)NCC(N)=O` [indium-111 labelled] the tissue uptake was 0.03 ± 0.03 %ID/g (female athymic nude mouse, muscle; intravenous, 0.037 MBq, 2 h).
With `CC[C@H](C)[C@H](NC(=O)[C@H](Cc1c[nH]cn1)NC(=O)[C@@H]1CSSC[C@H](NC(=O)[C@H](Cc2c[nH]cn2)NC(=O)[C@H](Cc2ccccc2)NC(=O)CN2CCN(CC(=O)O)CCN(CC(=O)O)CCN(CC(=O)O)CC2)C(=O)N2C[C@H](O)C[C@H]2C(=O)N[C@@H](Cc2ccc(O)c(Cl)c2)C(=O)N[C@@H](CC(=O)O)C(=O)N[C@@H](CC(C)C)C(=O)N1)C(=O)N[C@@H](CC(C)C)C(=O)NCc1ccc(CNC(=O)CN2CCN(CC(=O)O)CCN(CC(=O)O)CCN(CC(=O)O)CC2)cc1` [indium-111 labelled] the thrombus uptake was 1.04 %ID/g (Sprague-Dawley rat, male, carotid artery thrombosis, thrombus; 3 h).
The retention time of `COc1cc(/C=C/C(=O)NCCCCCC(=O)N[C@@H](CCCNC(=N)N)C(=O)N[C@@H](CCCNC(=N)N)C(=O)N[C@@H](Cc2c[nH]c3ccccc23)C(=O)N[C@@H](CCC(N)=O)C(=O)N[C@@H](Cc2c[nH]c3ccccc23)C(=O)N[C@@H](CCCNC(=N)N)C(N)=O)ccc1O` is reported as 5.5 min (RP-HPLC, C18 column; higher is more hydrophobic).
`N=C(N)NCCC[C@@H]1NC(=O)[C@H](CCCCNC(=O)CCC(C(=O)O)N2CCCN3CCN(CCCN(C(CCC(=O)NCCCC[C@@H]4NC(=O)[C@@H](Cc5ccc(O)cc5)NC(=O)[C@H](CC(=O)O)NC(=O)CNC(=O)[C@H](CCCNC(=N)N)NC4=O)C(=O)O)CC3)CC2)NC(=O)[C@@H](Cc2ccc(O)cc2)NC(=O)[C@H](CC(=O)O)NC(=O)CNC1=O` (stereo partly drawn) [copper-64 labelled] has a tumour uptake of 2.92 ± 0.26 %ID/g (SCID mouse, PC-3 xenograft, tumour; iv, dose not given, 1 h).
With `C=C1CC[C@H](OCCCNC(=O)CCOCCOCCOCCOCCOCCOCCOCCOCCOCCOCCOCCOCCOCCOCCOCCOCCOCCOCCOCCOCCOCCOCCOCCOCCOCCOCCOCCOCCOCCOCCOCCOCCOCCOCCOCCOCCNC(=O)CCN2C(=O)CC(SC[C@H](NC(=O)[C@H](Cc3ccccc3)NC(=O)[C@H](CC(N)=O)NC(=O)[C@H](Cc3c[nH]cn3)NC(=O)[C@@H](NC(=O)[C@H](CC(=O)O)NC(=O)[C@H](CCC(N)=O)NC(=O)[C@H](CC(C)C)NC(=O)[C@H](CCCCN)NC(=O)[C@H](CCCCN)NC(=O)[C@H](CCCNC(=N)N)NC(=O)[C@H](CC(C)C)NC(=O)[C@H](Cc3c[nH]c4ccccc34)NC(=O)[C@H](CCC(=O)O)NC(=O)[C@@H](NC(=O)[C@H](CCCNC(=N)N)NC(=O)[C@H](CCC(=O)O)NC(=O)[C@H](CCSC)NC(=O)[C@H](CO)NC(=O)[C@H](CC(N)=O)NC(=O)[C@H](CC(C)C)NC(=O)[C@H](Cc3c[nH]cn3)NC(=O)[C@H](CCCCN)NC(=O)CNC(=O)[C@H](CC(C)C)NC(=O)[C@H](CC(N)=O)NC(=O)[C@H](Cc3c[nH]cn3)NC(=O)[C@H](CCSC)NC(=O)[C@H](CC(C)C)NC(=O)[C@H](CCC(N)=O)NC(=O)[C@@H](NC(=O)[C@H](CCC(=O)O)NC(=O)[C@H](CO)NC(=O)[C@@H](NC(=O)[C@@H](N)CO)C(C)C)[C@@H](C)CC)C(C)C)C(C)C)C(N)=O)C2=O)C/C1=C/C=C1\CCC[C@]2(C)[C@@H]([C@H](C)CCCC(C)(C)O)CC[C@@H]12` (stereo partly drawn) the dose-normalized Cmax was 2.48 (Sprague Dawley rat; subcutaneous, 14.2 µg/kg daily, 21 days; baseline: 1 µg/kg dose).
`COc1cc(/C=C/C(=O)NCCCCCC(=O)N[C@@H](CCCNC(=N)N)C(=O)N[C@@H](CC(C)C)C(=O)N[C@@H](CC(C)C)C(=O)N[C@@H](CCCNC(=N)N)C(N)=O)ccc1O` gave a retention time of 5.5 min (RP-HPLC, C18 column; higher is more hydrophobic).
The logP of `O=C(O)CC[C@H](NC(=O)N[C@@H](CCCCNC(=O)CCCCC[C@H](NC(=O)CCS[C@@H]1O[C@H](CO)[C@H](O)[C@H](O)[C@H]1O)C(=O)NCCCC[C@@H](NC(=O)[C@@H](Cc1ccccc1)NC(=O)[C@@H](Cc1ccc(O)c(I)c1)NC(=O)CCC(C(=O)O)N1CCN(CC(=O)O)CCN(CC(=O)O)CCN(CC(=O)O)CC1)C(=O)O)C(=O)O)C(=O)O` (stereo partly drawn) [lutetium-177 labelled] is reported as -3.95 ± 0.12 (shake flask n-octanol/PBS; pH 7.4, radiolabelled compound).
`CC(=O)N(O)CCCCCNC(=O)CCC(=O)N(O)CCCCCNC(=O)CCC(=O)N(O)CCCCCNC(=S)Nc1ccc(NC(=S)NCCC(=O)N[C@H](CC(=O)O)C(=O)N[C@H](CC(=O)O)C(=O)NCCC(=O)N[C@H](CC(=O)O)C(=O)N[C@H](CC(=O)O)C(=O)NCCC(=O)N[C@H](CC(=O)O)C(=O)N[C@H](CC(=O)O)C(=O)NCCC(=O)N[C@H](CC(=O)O)C(=O)N[C@H](CC(=O)O)C(N)=O)cc1` [zirconium-89 labelled] has a terminal half-life of 31.8 min (BALB/cJ mice, blood; intravenous, 20 µg).

A few entries again:
`N=C(N)NCCC[C@@H]1NC(=O)[C@H](CCCCNC(=O)CCC(C(=O)O)N2CCCN3CCN(CCCN(C(CCC(=O)NCCCC[C@@H]4NC(=O)[C@@H](Cc5ccc(O)cc5)NC(=O)[C@H](CC(=O)O)NC(=O)CNC(=O)[C@H](CCCNC(=N)N)NC4=O)C(=O)O)CC3)CC2)NC(=O)[C@@H](Cc2ccc(O)cc2)NC(=O)[C@H](CC(=O)O)NC(=O)CNC1=O` (stereo partly drawn) [copper-64 labelled] has a tumour uptake of 2.92 ± 0.26 %ID/g (SCID mouse, PC-3 xenograft, tumour; iv, dose not given, 1 h).
With `C=C1CC[C@H](OCCCNC(=O)CCOCCOCCOCCOCCOCCOCCOCCOCCOCCOCCOCCOCCOCCOCCOCCOCCOCCOCCOCCOCCOCCOCCOCCOCCOCCOCCOCCOCCOCCOCCOCCOCCOCCOCCOCCOCCNC(=O)CCN2C(=O)CC(SC[C@H](NC(=O)[C@H](Cc3ccccc3)NC(=O)[C@H](CC(N)=O)NC(=O)[C@H](Cc3c[nH]cn3)NC(=O)[C@@H](NC(=O)[C@H](CC(=O)O)NC(=O)[C@H](CCC(N)=O)NC(=O)[C@H](CC(C)C)NC(=O)[C@H](CCCCN)NC(=O)[C@H](CCCCN)NC(=O)[C@H](CCCNC(=N)N)NC(=O)[C@H](CC(C)C)NC(=O)[C@H](Cc3c[nH]c4ccccc34)NC(=O)[C@H](CCC(=O)O)NC(=O)[C@@H](NC(=O)[C@H](CCCNC(=N)N)NC(=O)[C@H](CCC(=O)O)NC(=O)[C@H](CCSC)NC(=O)[C@H](CO)NC(=O)[C@H](CC(N)=O)NC(=O)[C@H](CC(C)C)NC(=O)[C@H](Cc3c[nH]cn3)NC(=O)[C@H](CCCCN)NC(=O)CNC(=O)[C@H](CC(C)C)NC(=O)[C@H](CC(N)=O)NC(=O)[C@H](Cc3c[nH]cn3)NC(=O)[C@H](CCSC)NC(=O)[C@H](CC(C)C)NC(=O)[C@H](CCC(N)=O)NC(=O)[C@@H](NC(=O)[C@H](CCC(=O)O)NC(=O)[C@H](CO)NC(=O)[C@@H](NC(=O)[C@@H](N)CO)C(C)C)[C@@H](C)CC)C(C)C)C(C)C)C(N)=O)C2=O)C/C1=C/C=C1\CCC[C@]2(C)[C@@H]([C@H](C)CCCC(C)(C)O)CC[C@@H]12` (stereo partly drawn) the dose-normalized Cmax was 2.48 (Sprague Dawley rat; subcutaneous, 14.2 µg/kg daily, 21 days; baseline: 1 µg/kg dose).
